Experimental data from different studies.
Each numbered part is a random draw from the data of one study; scales do not carry over between parts. Substitutions count along the parent as printed.

Set 1
Target: RNA binding protein fox-1 homolog 2, RRM domain, GST-SBP tag (RBFOX2, Homo sapiens, UniProt O43251-10, residues 100-194)
Technique: RNA Bind-n-Seq
Form: RNA
Medium: in vitro
Tested at: 365 nM
Setting: natural RNA segment, single round, ends assumed
Reference: no-protein control
Direction: higher = stronger binding
Construct (chain): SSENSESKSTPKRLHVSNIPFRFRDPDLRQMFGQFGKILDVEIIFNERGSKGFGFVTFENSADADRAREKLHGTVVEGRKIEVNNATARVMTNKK
Under “RBNS enrichment (R)”, `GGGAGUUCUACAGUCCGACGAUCUAAGUGGCUGGACUUAUCUUGUGAUUUGGGGCCAUGGAAGAUUGGAAACAAAGAUUUUAAGCCUUCUUCUUUUUUUCUUUUUUCUUUUUUUUUUGAGACCAAGUCUCACUUGGAAUUCUCGGGUGCCAA` is recorded as 0.601.
For `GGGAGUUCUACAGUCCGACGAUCGCUCACUCCCCAACCCCCAACUCCGUGUGGUAAGCAACAUGGCUUUGAUGAUAAACGACUUUACUCUAAAAGCGGCUGGAACUCAGUGACAUGAGCGUGCGCUGACCCCAUGGAAUUCUCGGGUGCCAA`, “RBNS enrichment (R)” read 0.35.
Under “RBNS enrichment (R)”, `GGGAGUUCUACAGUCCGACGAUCGGAUAGUCAAGAAAAGGUUUAACUAGUUUUAGUAUCAGACUUUAAAAUUUCUUAAAGAUUUUGGUAAGAAAUAGAAGUCCACAUACAAGCAUUGAGGAAACUGAAAAAUCUGGAAUUCUCGGGUGCCAA` is recorded as 7.34.
`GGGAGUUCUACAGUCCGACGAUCUCACUAUGUGGCCCAGGCUGGUCUCAAACUUCUGGCCUUAAGUGAUGCUCCUGUCCUUGGCCUCCCAAAGUGCUGGGAUUACAGGUGUGAGCCACUGCACCCAGCCCACUUGGAAUUCUCGGGUGCCAA` — result for “RBNS enrichment (R)”: 0.269.
For `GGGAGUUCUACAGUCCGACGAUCUUUCAAAGAAUAAAAGCCUUUGGAGAGUUGCGGCAGUUCUGGGGGCGGGCUCAGGAGAGUCCAUAGAUCAGCCGUAACUGGAACGUAGAAUCUACGUCUGCCUCUGAAUGUGGAAUUCUCGGGUGCCAA`, “RBNS enrichment (R)” read 0.319.
`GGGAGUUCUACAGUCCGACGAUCCUCUGCCUGUCUCCCCCACCGGGCUGGGAGCUCUGCAGAGCAGGAAACAUGACUCGUAUAUGUCUCAGGUCCCUGCAGGGCCAAGCACCUAGCCUCGCUCUUGGCAGGUAUGGAAUUCUCGGGUGCCAA`: “RBNS enrichment (R)” 0.274.
For `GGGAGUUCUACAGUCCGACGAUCUGAUAAGCACUUGGAGGGGGACUUGGAAGGUGAGAAAGAUACUGCAUUUUCUCAUGAGUCUCCAAGCCCACUUGAAAAGUCACACUGAAAGGAUGCAAAUAGCCGUCUGCUGGAAUUCUCGGGUGCCAA`, “RBNS enrichment (R)” read 0.397.
`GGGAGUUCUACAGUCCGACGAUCUGAUUUUACAGGCUCAUAGGUGGAAGGGACUUGCCUUGUUUCAGAUGAGACUUUGGAGUAUGGACUUUUGAGUUAAUGCUGAAAUGAGUUAAGACUUUGGGGGACUGUUGUGGAAUUCUCGGGUGCCAA` — result for “RBNS enrichment (R)”: 0.503.

Set 2
Target: CCNE1, cyclin fold, Cln2 fusion (human)
Technique: yeast growth competition, sequencing
Medium: yeast
Setting: strong parent motif
Reference: not given
Direction: higher = stronger binding
Starting sequence: RBL1 docking peptide (human); GSAKRRLFGEDPP; partner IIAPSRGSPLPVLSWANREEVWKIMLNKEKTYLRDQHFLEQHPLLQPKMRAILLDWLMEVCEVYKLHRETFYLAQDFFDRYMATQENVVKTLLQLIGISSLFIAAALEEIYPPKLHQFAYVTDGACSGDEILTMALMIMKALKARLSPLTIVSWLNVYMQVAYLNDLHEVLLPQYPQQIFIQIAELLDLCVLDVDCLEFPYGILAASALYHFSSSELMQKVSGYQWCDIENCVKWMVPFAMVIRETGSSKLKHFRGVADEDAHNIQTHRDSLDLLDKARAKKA
`FSAKRRLFGEDPP [G1F]` — result for “normalised enrichment score”: 7.89.
Under “normalised enrichment score”, `VSAKRRLFGEDPP [G1V]` is recorded as 6.66.
For `GSAKRRLFGEDFP [P12F]`, “normalised enrichment score” read 5.66.
Under “normalised enrichment score”, `GSAKRRLFGDDPP [E10D]` is recorded as 6.46.
For `CSAKRRLFGEDPP [G1C]`, “normalised enrichment score” read 6.76.
For `GSAKRRLFGEDIP [P12I]`, “normalised enrichment score” read 5.99.
`GLAKRRLFGEDPP [S2L]` — result for “normalised enrichment score”: 4.53.
`GSAKRRLFGEDEP [P12E]`: “normalised enrichment score” 7.31.
`GSAKRRLFGEDPQ [P13Q]` — result for “normalised enrichment score”: 5.31.
For `GSGKRRLFGEDPP [A3G]`, “normalised enrichment score” read 1.76.
`GSAKRRLFGEDPY [P13Y]`: “normalised enrichment score” 5.58.
For `GSAKRRLFGEDPD [P13D]`, “normalised enrichment score” read 6.54.
For `GSAKRRLPGEDPP [F8P]`, “normalised enrichment score” read 0.266.
`GSVKRRLFGEDPP [A3V]`: “normalised enrichment score” 7.55.
`GSAKRRLFGTDPP [E10T]`: “normalised enrichment score” 4.63.
`GSAKRRLFGEDPE [P13E]` — result for “normalised enrichment score”: 6.16.
`GSAKRRPFGEDPP [L7P]` — result for “normalised enrichment score”: 0.357.
`GSAKRRLFGEYPP [D11Y]`: “normalised enrichment score” 5.46.
`GSAKRRLFGADPP [E10A]`: “normalised enrichment score” 5.11.
For `GSAKRRLQGEDPP [F8Q]`, “normalised enrichment score” read -0.15.
`GSAHRRLFGEDPP [K4H]`: “normalised enrichment score” 1.07.

Set 3
Target: Histone acetyltransferase KAT6A, both winged helices, GST fusion (KAT6A, Homo sapiens, UniProt Q92794, residues 1-181)
Technique: protein binding microarray
Form: double-stranded DNA, one strand shown
Medium: in vitro
Tested at: not given
Setting: 8-mer, flanks averaged, mean of 2 arrays, mostly near background
Reference: not given
Direction: higher = stronger binding
Target sequence (chain): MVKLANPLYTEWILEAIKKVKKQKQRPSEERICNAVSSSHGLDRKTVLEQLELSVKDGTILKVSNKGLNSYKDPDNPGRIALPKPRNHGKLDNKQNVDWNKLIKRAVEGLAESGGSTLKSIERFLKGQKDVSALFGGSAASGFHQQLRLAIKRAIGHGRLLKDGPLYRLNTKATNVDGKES
For `ATCCGCCG`, the E-score was 0.285.
`CCGACCAG` has an E-score of 0.0923.
`AGGCCTTG` gave an E-score of -0.198.
`AGACGAGA` has an E-score of -0.119.
`CACACCAG` has an E-score of -0.153.
For `CGTCTTCA`, the E-score was 0.0257.
The E-score of `GTAAGCGA` is reported as 0.0493.
For `CGAGGAGA`, the E-score was -0.153.
`ACAGGAGT` has an E-score of -0.154.
`GCCCGGAC` has an E-score of 0.076.
`ATGGTGCG` has an E-score of 0.00338.
The E-score of `TACCAGTA` is reported as -0.218.
`GCACACGC` has an E-score of 0.133.
With `CAGTCTAA` the E-score was -0.0456.
For `TAAGAAAA`, the E-score was -0.0956.
The E-score of `GTTGCATA` is reported as 0.0209.
`CCGGGGGA` gave an E-score of 0.201.

Set 4
Target: Interferon regulatory factor 5, full length, phosphomimetic (IRF5, Homo sapiens, UniProt Q13568-2, residues 1-514, K96S/S451D/S453D/S456D/S462D)
Technique: protein-binding microarray
Form: double-stranded DNA, one strand shown
Medium: in vitro
Tested at: 250 nM
Setting: 60-bp whole probe
With: salmon DNA 0.4 mg/ml
Reference: random background probes
Direction: higher = stronger binding
Shared flanks, not repeated: GCCTAGCAC … GTCTTGATTCGCTTGACGCTGCTG
The log fluorescence of `GACGGTTTCGACACTGGAGACGTGCTA` is reported as 4.81 z-score.
`TCATGTGTGTGTTTGTGACTGTGCTAG` has a log fluorescence of -0.132 z-score.
`GACGGTCTCCTACTGCGGACGTGCTAG` gave a log fluorescence of -0.338 z-score.
With `GTGGGACCCATGAACACTCAGTGCTAG` the log fluorescence was -0.616 z-score.
For `GACGGGCTGCTTTTCCTGACGTGCTAG`, the log fluorescence was -0.424 z-score.
`GAAAGCCTGCTGCCAGTCTGGTGCTAG` has a log fluorescence of 0.351 z-score.
The log fluorescence of `GTCGATTCCAGTTTCGAGACGTGCTAG` is reported as 5.99 z-score.
`GACGGACTGCCTTTCCTGACGTGCTAG` has a log fluorescence of -0.558 z-score.
`GGCTCCTCCCCGCTTCTGGAGTGCTAG` has a log fluorescence of -0.572 z-score.
For `GACGATCTCAGAATCGAGACGTGCTAG`, the log fluorescence was 0.0823 z-score.
`TATTATATCTGTGTTATTAAGTGCTAG` has a log fluorescence of 1.42 z-score.
The log fluorescence of `AACGGTATCGGTATCGGGACGTGCTAG` is reported as 7.03 z-score.
The log fluorescence of `TTAGAACTCGGGACTGGATTAGTGCTA` is reported as -0.233 z-score.
`TTAGAACTGAGTCTCCATTAGTGCTAG` gave a log fluorescence of -0.0558 z-score.
The log fluorescence of `GACAGTATCGGTCTCGGGACGTGCTAG` is reported as 7.79 z-score.
The log fluorescence of `TTTGAACTGGGGTTTCGATTAGTGCTA` is reported as 5.75 z-score.
With `TCAGTTTTCATTTTATGACTGTGCTAG` the log fluorescence was 2.6 z-score.
`GAAAATTTCTTCCTCCCCCTGTGCTAG` gave a log fluorescence of 1.1 z-score.
The log fluorescence of `GACGGACCGGACTTTCGGGACGTGCTA` is reported as 4.71 z-score.

Repeated from above (set 3):
For `CGAGGAGA`, the E-score was -0.153.
`ACAGGAGT` has an E-score of -0.154.
`GCCCGGAC` has an E-score of 0.076.
`ATGGTGCG` has an E-score of 0.00338.
The E-score of `TACCAGTA` is reported as -0.218.
`GCACACGC` has an E-score of 0.133.
With `CAGTCTAA` the E-score was -0.0456.
For `TAAGAAAA`, the E-score was -0.0956.
The E-score of `GTTGCATA` is reported as 0.0209.
